Measurements from different studies.
Protocols differ between the studies behind these lines. Numbers after ± are the reported error.
Cell line: MCF7

SMILES | assay | setting | IC50 [µM]
CN1CCC2(CC1)C/C(=N\NC(=O)Nc1ccc(Cl)cc1)c1ccccc1O2 | cell growth, MTT | 48 h | 2.9 ± 0.11
O=C(/C=C/c1ccccc1)Oc1ccc2c(c1)O/C(=C\C=C\c1ccccc1)C2=O | cell growth or viability, MTT | 72 h | > 100
O=C(CCCC(=O)Nc1ccc(-[c-]2cccc2)cc1)NO.[Fe+2].c1cc[cH-]c1 | cell growth or viability | – | 5.08
CCCCn1cc(C(=O)O)c(=O)c2cc(F)c3[nH]nnc3c21 | cell growth or viability, SRB | – | 171
CCCCn1cc(C(=O)O)c(=O)c2cc(F)c(Nc3cc(OC)c(OC)c(OC)c3)c([N+](=O)[O-])c21 | cell growth or viability, SRB | – | 79.9
O=C(CCCCCCC(=O)NC[c-]1cccc1)NO.[Fe+2].c1cc[cH-]c1 | cell growth or viability | – | 3.6
CCN1CCC2(CC1)C/C(=N\NC(=O)Nc1ccccc1)c1ccccc1O2 | cell growth, MTT | 48 h | 6.03 ± 0.27
CCCCn1cc(C(=O)O)c(=O)c2cc(F)c(Nc3cccc(OC)c3)c([N+](=O)[O-])c21 | cell growth or viability, SRB | – | 123
CC1=[N+]2N=C(c3ccccc3)[O][Pd-2]2([Cl])[O+]=C2Oc3ccccc3C=C21 (stereo not drawn) | cytotoxicity, MTT | 48 h | 13.4 ± 0.9

For quick reference, copied from above:
SMILES | assay | setting | IC50 [µM]
CCN1CCC2(CC1)C/C(=N\NC(=O)Nc1ccccc1)c1ccccc1O2 | cell growth, MTT | 48 h | 6.03 ± 0.27
